Assay results of several laboratories.
Protocols differ between the studies behind these lines. “And” joins repeats or separate records; there may be more than shown. Numbers after ± are the reported error.
TRPM8: Transient receptor potential cation channel subfamily M member 8 (TRPM8, Homo sapiens, UniProt Q7Z2W7)
FFAR4: Free fatty acid receptor 4 (FFAR4, Homo sapiens, UniProt Q5NUL3)
GAP50: Glideosome-associated protein 50 (GAP50, Plasmodium falciparum, UniProt Q8I2X3)
CXCR4: C-X-C chemokine receptor type 4 (CXCR4, Homo sapiens, UniProt P61073)
TOP2A: DNA topoisomerase 2-alpha (TOP2A, Homo sapiens, UniProt P11388)
NADH dehydrogenase [ubiquinone] iron-sulfur protein 7, mitochondrial/NADH dehydrogenase [ubiquinone] iron-sulfur protein 2, mitochondrial/MT-ND1: NADH dehydrogenase [ubiquinone] iron-sulfur protein 7, mitochondrial/NADH dehydrogenase [ubiquinone] iron-sulfur protein 2, mitochondrial/MT-ND1 (Homo sapiens, UniProt O75251+O75306+P03886)
Nuclear receptor subfamily 4 group A member 2 LBD: Nuclear receptor subfamily 4 group A member 2, LBD (Homo sapiens, UniProt P43354)

CCCC[C@H](NC(=O)[C@H](C)c1c(C)[nH]c2ccc(O)cc12)c1ncc(-c2cc3ccccc3nc2OC)[nH]1 — effect (Alpha-1B adrenergic receptor (Adra1b, Rattus norvegicus, UniProt P15823); rat; 10 µM): 59%
COc1c(Nc2cc(C(F)(F)F)cc(C(F)(F)F)c2)c(=O)c1=O — kobs (CD209 antigen (CD209, Homo sapiens, UniProt Q9NNX6); covalent labelling, intact protein MS; 500 µM): 0.00193 min⁻¹
COCCNc1nc2ccc(C#CC3(O)CCCCC3)cc2n1-c1ccnc(N)n1 — remaining kinase activity (Serine/threonine-protein kinase PAK 2 (PAK2, Homo sapiens, UniProt Q13177); enzyme activity, inhibitor, Z'-LYTE; 1 µM; relative to: no-inhibitor control): 14.9%
COc1cc2c(cc1OC)-c1[nH]nc(Nc3cccc(F)c3)c1C2 — remaining activity (TRPM8; antagonist; HEK293; 5 µM; relative to: control): 98.8 ± 5.16%
CN(CCCCCCNC(=O)CNc1cccc2c1C(=O)N(C1CCC(=O)NC1=O)C2=O)Cc1cn(Cc2ccc(C(=O)NO)cc2)c2ccccc12.O=C(O)C(F)(F)F (stereo not drawn) — degradation (Polyamine deacetylase HDAC10 (HDAC10, Homo sapiens, UniProt Q969S8); degrader, western blot; MM1.S; 5 µM, 24 h): 94%
CCc1oc2c([C@H](CO)N(CC)CC)cccc2c1C — activity (FFAR4; agonist, NanoBiT G-protein dissociation; concentration not given): no effect
Cc1ccc2oc(-c3cc(NC(=O)Cc4ccccc4)ccc3Cl)nc2c1 — kon (GAP50; binding, surface plasmon resonance; 1:1 binding model): 102000 M⁻¹ s⁻¹
O=C(NCc1ccc(CNS(=O)(=O)c2ccccc2)cc1)c1c(Cl)cc(Cl)cc1Cl — EC (CXCR4; binding, inhibitor, competitive binding; MDA-MB-231; with: biotinylated TN14003): 10 nM
O=c1cc(NCCc2cccc(Cl)c2)[nH]c(=O)[nH]1 — agonist effect (FFAR4; agonist, β-arrestin recruitment; CHO cells; 10 µM; relative to: 30 µM TUG-891): 1 ± 1%
NCc1ccc(C(F)(F)F)cc1 — kcat (Amine oxidase [flavin-containing] A (Maoa, Rattus norvegicus, UniProt P21396); substrate; pH 7.5, 25 °C, α,α-protio substrate): 5.56 s⁻¹
O=c1nc(SCc2cc(F)cc(C(F)(F)F)c2)nc(SCc2ccc3sccc3c2)[nH]1 — ATP hydrolysis rate (TOP2A; ATPase activity; 3.9 µM, with: ATP 0.75 mM): 2.1 µM/min and 2.16 µM/min
NC(=O)NOCCCCCCCCCCCCCCCCCCCC[P+](c1ccccc1)(c1ccccc1)c1ccccc1.O=C([O-])C(F)(F)F — oxygen consumption rate (NADH dehydrogenase [ubiquinone] iron-sulfur protein 7, mitochondrial/NADH dehydrogenase [ubiquinone] iron-sulfur protein 2, mitochondrial/MT-ND1; complex I-dependent respiration, Seahorse XF96; HCT-116; 0.3 µM, 24 h; relative to: control): 90.5 ± 3.66%
O=[N+]([O-])c1cc2c3ccccc3ccc2c2ccccc12 — protein level (Aryl hydrocarbon receptor (Ahr, Rattus norvegicus, UniProt P41738); immunohistochemistry H-score; Sprague-Dawley rats, mammary tissue; oral gavage, dose not given, 24 h; relative to: vehicle): decreased
COc1cccc(-n2nc3c4cc(Cl)ccc4[nH]cc-3c2=O)c1 — GABA current (Gamma-aminobutyric acid receptor subunit alpha-4/beta-3, with delta subunit (Rattus norvegicus, UniProt P28471+P63079); modulator, two-electrode voltage clamp; α4β3δ receptor; 10 µM, with: GABA EC3-10; relative to: GABA alone): 121 ± 4.5%
CC(=O)Nc1ccc(-c2noc(C[C@H]3CCCN(Cc4cccc(F)c4C)C3)n2)cc1 — koff (GAP50; binding, surface plasmon resonance; 1:1 binding model): 0.826 s⁻¹
Nc1nc2c(ncn2[C@@H]2O[C@H](COP(=O)(O)O)[C@@H](O)[C@H]2O)c(=O)[nH]1 — reaction rate (GUK1 (Homo sapiens, UniProt Q16774, R41A); enzyme activity, NADH-coupled; 125 µM): 1.33 s⁻¹ and 0.521 s⁻¹ and 0.551 s⁻¹
CCCCCNc1cc(=O)[nH]c(=O)[nH]1 — activation (FFAR4; agonist, β-arrestin recruitment; CHO cells; 10 µM): 1%
O=C(COc1cc(Cl)ccc1Cl)Nc1cc(C2CCC2)nn1C1CCOCC1 — Emax (Kir3.1/Kir3.2 (Homo sapiens, UniProt P48051+P48549); thallium flux, activator; HEK293; relative to: standard compound): 58%
C=C1C(=O)O[C@@H]2C[C@@]3(C)CCCC(=C)[C@@H]3C[C@H]12 — activation (Nuclear receptor subfamily 4 group A member 2 LBD; reporter gene, Gal4 hybrid reporter; 10 µM; relative to: vehicle): 0.82 fold
NCCCS(=O)(=O)O — normalised MST signal (Sodium- and chloride-dependent taurine transporter (SLC6A6, Homo sapiens, UniProt P31641, G62A); binding, microscale thermophoresis; 500 µM, room temperature, with: 50 nM labelled protein; higher = more binding): 0.035
NC(=O)NOCCCCCCCCCCCCCC[P+](c1ccccc1)(c1ccccc1)c1ccccc1.O=C([O-])C(F)(F)F — oxygen consumption rate (NADH dehydrogenase [ubiquinone] iron-sulfur protein 7, mitochondrial/NADH dehydrogenase [ubiquinone] iron-sulfur protein 2, mitochondrial/MT-ND1; complex I-dependent respiration, Seahorse XF96; HCT-116; 2 µM, 24 h; relative to: control): 27.6 ± 4.49%
CCc1nc2ccccc2n1C[C@H](O)COc1cc(C)ccc1Cl — kon (GAP50; binding, surface plasmon resonance; 1:1 binding model): 23800 M⁻¹ s⁻¹
Nc1ncnc2c1ncn2[C@@H]1O[C@H](COP(=O)(O)CP(=O)(O)OP(=O)(O)O)[C@@H](O)[C@H]1O — calcium influx (P2X purinoceptor 1 (P2RX1, Homo sapiens, UniProt P51575, M214A); calcium influx; 1 µM; relative to: ionomycin response): 71.6% and 55.8% and 79.4% and 68.6%
O=C(CCCc1ccccc1)C(=O)NCCc1ccc(Oc2ccc(C(F)(F)F)cn2)cc1 — probe-enriched protein abundance (Lipe (Mus musculus, UniProt P54310); inhibitor, refers to: LIPS; mouse, BAT cytosol proteome; 10 µM; relative to: DMSO, lower = stronger inhibition): 355000 a.u.
CSCCCNc1cc(=O)[nH]c(=O)[nH]1 — inhibition (FFAR4; antagonist, β-arrestin recruitment; CHO cells; 10 µM, with: 4 µM TUG-891): 25 ± 10%
Cn1cc(C(=O)N2CCc3ccccc32)c2ccccc21 — Hill slope (3-oxoacyl-[acyl-carrier-protein] reductase FabG (fabG, Pseudomonas aeruginosa, UniProt O54438); enzyme activity, inhibitor, NADPH fluorescence; reverse reaction, with: 3-OH-decanoyl-NAC, NADP): 1.4
CN1CCC(NCc2cccc(-c3ccc(S(=O)(=O)NCc4ccccc4)cc3)c2)CC1 — kon (GAP50; binding, surface plasmon resonance; 1:1 binding model): 85200 M⁻¹ s⁻¹
Cc1[nH]c(N)nc1CCC(=O)c1ccccc1.Cl — Hill coefficient (Voltage-gated hydrogen channel 1 (HVCN1, Homo sapiens, UniProt Q96D96, F150A); proton current, inhibitor, inside-out patch clamp): 0.92 ± 0.03
O=c1cc(-c2cccc3c2Sc2ccccc2S3)oc(N2CCOCC2)c1 — remaining activity (TRPM8; antagonist; HEK293; 5 µM; relative to: control): 85.9 ± 8.3%
CCNc1cc(=O)[nH]c(=O)[nH]1 — inhibition (FFAR4; antagonist, β-arrestin recruitment; CHO cells; 10 µM, with: 4 µM TUG-891): 13 ± 2%
NC(=O)NOCCCCCCCCCCCCCCCC[P+](c1ccccc1)(c1ccccc1)c1ccccc1.O=C([O-])C(F)(F)F — oxygen consumption rate (NADH dehydrogenase [ubiquinone] iron-sulfur protein 7, mitochondrial/NADH dehydrogenase [ubiquinone] iron-sulfur protein 2, mitochondrial/MT-ND1; complex I-dependent respiration, Seahorse XF96; HCT-116; 0.1 µM, 24 h; relative to: control): 88.9 ± 5.6%
CCCC(=O)Nc1ncnc2c1ncn2[C@@H]1O[C@@H]2COP(=O)(O)O[C@H]2[C@H]1O — relative binding affinity (anti-cAMP antibody; antibody binding, competitive cAMP EIA; concentration not given, acetylated samples; relative to: EC50 cAMP over EC50 cpd, higher = stronger binding): 0.0043
CCNC(=O)/C=C/c1cccc(Br)c1 — remaining transport activity (Sodium-dependent neutral amino acid transporter B(0)AT1 (SLC6A19, Homo sapiens, UniProt Q695T7); inhibitor, L-[14C]leucine uptake; CHO-BC cells; 0.01 µM, 6 min, unit not given, with: GPNA 3 mM, JPH203 3 µM; relative to: uninhibited cells): 0.905
COCCOCc1ccc(-c2cc3onc(-c4ccccc4)c3c(=O)n2C)cc1 — activation (Nuclear receptor subfamily 4 group A member 2 LBD; reporter gene, Gal4 hybrid reporter; 1 µM; relative to: vehicle): 1.31 ± 0.02 fold
C=CC(=O)N1CCC(COCC(=O)N2CCN(c3nc(-c4cnc(N)nc4C(F)F)nc(N4CCOC[C@@H]4C)n3)CC2)CC1 — remaining binding (Serine/threonine-protein kinase 17A (STK17A, Homo sapiens, UniProt Q9UEE5); KINOMEscan; 1 µM): 77%
Cc1ccc(S(=O)(=O)NCc2ccc(CNC(=O)c3ccncc3)cc2)cc1 — EC (CXCR4; binding, inhibitor, competitive binding; MDA-MB-231; with: biotinylated TN14003): 10 nM
Fc1ccc(-c2nc3n(c2-c2ccncc2)CCS3)cc1 — remaining activity (TRPM8; antagonist; HEK293; 5 µM; relative to: control): 85.7 ± 10.2%
O=c1nc(SCc2cc(F)cc(C(F)(F)F)c2)nc(SCc2csc3ccc(Cl)cc23)[nH]1 — linear DNA (TOP2A; DNA cleavage; 7.8 µM, replicate 2): 0%
O=C1O/C(=C\c2cc(F)ccc2OCCN2CCOCC2)c2cc(Cc3cccc(F)c3)[nH]c(=O)c21 — binding free energy (Dual specificity calcium/calmodulin-dependent 3',5'-cyclic nucleotide phosphodiesterase 1C, isoform PDE1C2 (PDE1C, Homo sapiens, UniProt Q14123); enzyme activity, inhibitor; with: 3H-cGMP substrate): -11.1 kcal/mol
N=C1NC(=O)C2(CCc3ccc(Cl)cc32)C(=O)N1 (stereo not drawn) — Emax (GABA-A receptor; alpha-1/beta-3/gamma-2 (Homo sapiens, UniProt P14867+P18507+P28472); 300 µM): 2%
CCCCCCN(C)c1cc(=O)[nH]c(=O)[nH]1 — activation (FFAR4; agonist, β-arrestin recruitment; CHO cells; 10 µM): 1%
c1coc(-c2n[nH]cc2-c2ccnc3ccccc23)c1 — log2 fold change (Serine/threonine-protein kinase PKH2 (Candida albicans, UniProt Q5A3P6); kinase binding, MIB/MS competition; Candida albicans lysate; 1 µM; relative to: DMSO, negative = stronger binding): -0.18

A few entries again:
COCCOCc1ccc(-c2cc3onc(-c4ccccc4)c3c(=O)n2C)cc1 — activation (Nuclear receptor subfamily 4 group A member 2 LBD; reporter gene, Gal4 hybrid reporter; 1 µM; relative to: vehicle): 1.31 ± 0.02 fold
C=CC(=O)N1CCC(COCC(=O)N2CCN(c3nc(-c4cnc(N)nc4C(F)F)nc(N4CCOC[C@@H]4C)n3)CC2)CC1 — remaining binding (Serine/threonine-protein kinase 17A (STK17A, Homo sapiens, UniProt Q9UEE5); KINOMEscan; 1 µM): 77%
Cc1ccc(S(=O)(=O)NCc2ccc(CNC(=O)c3ccncc3)cc2)cc1 — EC (CXCR4; binding, inhibitor, competitive binding; MDA-MB-231; with: biotinylated TN14003): 10 nM
Fc1ccc(-c2nc3n(c2-c2ccncc2)CCS3)cc1 — remaining activity (TRPM8; antagonist; HEK293; 5 µM; relative to: control): 85.7 ± 10.2%
O=c1nc(SCc2cc(F)cc(C(F)(F)F)c2)nc(SCc2csc3ccc(Cl)cc23)[nH]1 — linear DNA (TOP2A; DNA cleavage; 7.8 µM, replicate 2): 0%
